Results pooled from the literature.
CTSL: Procathepsin L (CTSL, Homo sapiens, UniProt P07711)
Sequence of UniProt P07711 (whole entry, looked up): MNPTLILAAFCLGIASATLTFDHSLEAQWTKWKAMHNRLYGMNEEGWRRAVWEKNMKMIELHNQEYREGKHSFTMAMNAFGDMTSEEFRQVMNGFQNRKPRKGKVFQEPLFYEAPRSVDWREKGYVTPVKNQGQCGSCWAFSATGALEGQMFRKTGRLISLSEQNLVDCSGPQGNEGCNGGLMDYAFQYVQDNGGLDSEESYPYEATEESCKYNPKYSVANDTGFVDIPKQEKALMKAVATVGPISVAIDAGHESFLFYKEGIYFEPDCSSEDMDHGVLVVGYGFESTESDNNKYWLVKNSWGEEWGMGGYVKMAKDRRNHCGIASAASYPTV
HDAC6: Protein deacetylase HDAC6 (HDAC6, Homo sapiens, UniProt Q9UBN7)
Sequence of UniProt Q9UBN7 (whole entry, looked up): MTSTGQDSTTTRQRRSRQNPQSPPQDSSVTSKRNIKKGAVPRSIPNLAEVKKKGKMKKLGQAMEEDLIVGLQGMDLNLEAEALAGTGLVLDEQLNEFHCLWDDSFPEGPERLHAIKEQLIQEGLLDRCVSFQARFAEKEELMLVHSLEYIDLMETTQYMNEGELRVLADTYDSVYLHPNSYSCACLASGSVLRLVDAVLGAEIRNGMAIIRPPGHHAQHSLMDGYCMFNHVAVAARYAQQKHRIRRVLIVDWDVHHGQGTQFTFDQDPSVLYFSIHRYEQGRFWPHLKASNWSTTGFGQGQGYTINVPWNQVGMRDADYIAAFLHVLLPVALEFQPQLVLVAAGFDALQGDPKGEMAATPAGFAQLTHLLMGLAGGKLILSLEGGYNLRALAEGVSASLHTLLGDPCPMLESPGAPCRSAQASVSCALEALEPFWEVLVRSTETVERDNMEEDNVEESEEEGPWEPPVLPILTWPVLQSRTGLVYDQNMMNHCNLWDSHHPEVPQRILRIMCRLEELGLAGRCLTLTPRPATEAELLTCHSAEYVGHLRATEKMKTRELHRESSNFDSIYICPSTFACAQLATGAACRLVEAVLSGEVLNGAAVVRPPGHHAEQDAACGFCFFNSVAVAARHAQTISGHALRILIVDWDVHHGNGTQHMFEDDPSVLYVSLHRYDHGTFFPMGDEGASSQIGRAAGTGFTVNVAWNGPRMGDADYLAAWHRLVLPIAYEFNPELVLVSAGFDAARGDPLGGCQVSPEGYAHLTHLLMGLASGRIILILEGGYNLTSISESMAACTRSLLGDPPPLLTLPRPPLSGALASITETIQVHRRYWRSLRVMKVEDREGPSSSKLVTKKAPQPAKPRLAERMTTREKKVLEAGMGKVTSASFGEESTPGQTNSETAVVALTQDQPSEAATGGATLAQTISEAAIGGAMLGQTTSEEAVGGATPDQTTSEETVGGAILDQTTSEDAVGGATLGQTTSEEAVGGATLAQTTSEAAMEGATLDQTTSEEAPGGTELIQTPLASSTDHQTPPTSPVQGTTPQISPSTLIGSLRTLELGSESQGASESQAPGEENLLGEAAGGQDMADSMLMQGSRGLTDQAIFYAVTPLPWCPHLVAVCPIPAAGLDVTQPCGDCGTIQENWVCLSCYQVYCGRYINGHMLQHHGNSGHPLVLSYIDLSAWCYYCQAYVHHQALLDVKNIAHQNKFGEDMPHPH
RPS6KA5 N-terminal kinase domain: Ribosomal protein S6 kinase alpha-5, N-terminal kinase domain (RPS6KA5, Homo sapiens, UniProt O75582)
Sequence of UniProt O75582 (whole entry, looked up): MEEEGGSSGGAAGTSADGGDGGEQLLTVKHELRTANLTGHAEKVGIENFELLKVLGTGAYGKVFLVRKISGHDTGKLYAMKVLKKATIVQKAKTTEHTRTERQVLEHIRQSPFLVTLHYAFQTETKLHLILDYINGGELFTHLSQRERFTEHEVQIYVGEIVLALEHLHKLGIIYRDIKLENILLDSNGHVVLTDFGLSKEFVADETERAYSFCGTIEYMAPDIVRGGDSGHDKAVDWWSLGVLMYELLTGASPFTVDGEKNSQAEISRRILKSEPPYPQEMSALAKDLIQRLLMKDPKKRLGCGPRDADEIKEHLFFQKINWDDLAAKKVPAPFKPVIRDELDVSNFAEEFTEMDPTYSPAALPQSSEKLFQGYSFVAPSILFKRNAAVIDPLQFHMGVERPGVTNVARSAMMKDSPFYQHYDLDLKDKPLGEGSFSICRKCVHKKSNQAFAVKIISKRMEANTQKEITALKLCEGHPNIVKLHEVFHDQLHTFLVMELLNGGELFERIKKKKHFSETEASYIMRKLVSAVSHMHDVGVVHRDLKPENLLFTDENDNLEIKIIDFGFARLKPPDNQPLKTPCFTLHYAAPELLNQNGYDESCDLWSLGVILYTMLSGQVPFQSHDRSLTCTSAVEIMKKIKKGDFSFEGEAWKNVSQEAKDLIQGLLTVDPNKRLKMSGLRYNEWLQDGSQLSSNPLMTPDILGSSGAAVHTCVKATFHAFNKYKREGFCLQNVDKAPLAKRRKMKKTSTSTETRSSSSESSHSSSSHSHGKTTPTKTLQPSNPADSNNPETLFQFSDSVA
DRD3: D(3) dopamine receptor (DRD3, Homo sapiens, UniProt P35462)
Sequence of UniProt P35462 (whole entry, looked up): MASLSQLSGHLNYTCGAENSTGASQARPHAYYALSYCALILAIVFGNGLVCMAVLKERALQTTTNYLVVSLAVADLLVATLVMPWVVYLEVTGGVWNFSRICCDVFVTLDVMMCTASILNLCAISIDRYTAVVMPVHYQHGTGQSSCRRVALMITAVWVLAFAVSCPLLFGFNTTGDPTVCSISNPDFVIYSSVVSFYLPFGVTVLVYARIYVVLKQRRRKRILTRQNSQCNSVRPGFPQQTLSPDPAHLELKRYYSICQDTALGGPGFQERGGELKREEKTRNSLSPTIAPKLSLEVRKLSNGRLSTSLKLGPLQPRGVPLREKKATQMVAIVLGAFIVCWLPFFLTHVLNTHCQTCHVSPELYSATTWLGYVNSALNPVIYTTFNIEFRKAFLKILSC
Sequence of UniProt O15197 (whole entry, looked up): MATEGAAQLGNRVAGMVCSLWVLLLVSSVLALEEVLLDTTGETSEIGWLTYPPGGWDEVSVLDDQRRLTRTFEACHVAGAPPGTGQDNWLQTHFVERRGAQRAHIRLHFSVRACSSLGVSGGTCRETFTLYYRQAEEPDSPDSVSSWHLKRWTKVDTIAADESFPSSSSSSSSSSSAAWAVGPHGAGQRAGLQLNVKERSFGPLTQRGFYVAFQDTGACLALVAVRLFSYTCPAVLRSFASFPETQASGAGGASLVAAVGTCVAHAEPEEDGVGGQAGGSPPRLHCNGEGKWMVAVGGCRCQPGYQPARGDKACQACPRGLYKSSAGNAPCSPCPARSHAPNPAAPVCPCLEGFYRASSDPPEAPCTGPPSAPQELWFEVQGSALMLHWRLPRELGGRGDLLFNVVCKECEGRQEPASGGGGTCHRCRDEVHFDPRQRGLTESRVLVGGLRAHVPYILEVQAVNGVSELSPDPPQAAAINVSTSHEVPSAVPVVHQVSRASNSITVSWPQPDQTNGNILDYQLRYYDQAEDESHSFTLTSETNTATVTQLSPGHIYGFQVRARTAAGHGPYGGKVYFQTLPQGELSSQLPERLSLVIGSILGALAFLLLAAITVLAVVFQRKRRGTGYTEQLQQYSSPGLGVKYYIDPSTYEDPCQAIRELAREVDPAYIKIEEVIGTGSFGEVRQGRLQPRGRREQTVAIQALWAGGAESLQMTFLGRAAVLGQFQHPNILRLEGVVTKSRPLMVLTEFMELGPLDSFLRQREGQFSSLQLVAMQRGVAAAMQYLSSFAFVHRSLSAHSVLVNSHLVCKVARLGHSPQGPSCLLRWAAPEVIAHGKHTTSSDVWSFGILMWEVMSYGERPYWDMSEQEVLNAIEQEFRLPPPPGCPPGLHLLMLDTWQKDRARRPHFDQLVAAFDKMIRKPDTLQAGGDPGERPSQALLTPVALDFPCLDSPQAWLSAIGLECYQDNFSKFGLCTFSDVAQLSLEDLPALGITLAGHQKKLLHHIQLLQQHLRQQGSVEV
Sequence of UniProt P78368 (whole entry, looked up): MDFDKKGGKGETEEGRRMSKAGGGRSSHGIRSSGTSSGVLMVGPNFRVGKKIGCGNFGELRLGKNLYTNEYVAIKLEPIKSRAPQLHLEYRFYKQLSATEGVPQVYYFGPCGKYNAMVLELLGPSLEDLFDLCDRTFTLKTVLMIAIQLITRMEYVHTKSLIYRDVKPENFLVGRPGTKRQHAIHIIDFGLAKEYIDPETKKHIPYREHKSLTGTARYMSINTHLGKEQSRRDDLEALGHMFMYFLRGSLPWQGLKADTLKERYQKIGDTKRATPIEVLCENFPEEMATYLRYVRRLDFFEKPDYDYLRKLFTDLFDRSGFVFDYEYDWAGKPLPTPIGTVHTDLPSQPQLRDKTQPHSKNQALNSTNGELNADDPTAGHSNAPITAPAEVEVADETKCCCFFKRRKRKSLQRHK
Sequence of UniProt P25103 (whole entry, looked up): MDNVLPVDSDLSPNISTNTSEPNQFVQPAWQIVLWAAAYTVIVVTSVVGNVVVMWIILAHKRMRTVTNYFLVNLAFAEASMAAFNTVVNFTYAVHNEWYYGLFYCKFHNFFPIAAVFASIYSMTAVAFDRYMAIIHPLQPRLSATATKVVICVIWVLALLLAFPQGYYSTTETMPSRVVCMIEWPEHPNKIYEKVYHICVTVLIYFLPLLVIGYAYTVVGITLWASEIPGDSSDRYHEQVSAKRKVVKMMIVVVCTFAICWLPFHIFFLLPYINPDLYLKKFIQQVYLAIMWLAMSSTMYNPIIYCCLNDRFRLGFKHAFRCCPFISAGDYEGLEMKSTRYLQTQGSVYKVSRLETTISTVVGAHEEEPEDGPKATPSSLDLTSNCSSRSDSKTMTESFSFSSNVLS
Sequence of UniProt Q00535 (whole entry, looked up): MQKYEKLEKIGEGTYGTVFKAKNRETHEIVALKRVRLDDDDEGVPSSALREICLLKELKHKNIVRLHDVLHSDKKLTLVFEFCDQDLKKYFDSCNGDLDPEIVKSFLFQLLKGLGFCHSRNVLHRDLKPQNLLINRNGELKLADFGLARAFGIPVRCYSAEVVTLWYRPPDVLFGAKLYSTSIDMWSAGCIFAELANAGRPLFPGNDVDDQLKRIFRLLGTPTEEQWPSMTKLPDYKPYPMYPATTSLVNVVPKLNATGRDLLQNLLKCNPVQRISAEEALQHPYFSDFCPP

Structure (SMILES) | target or system | test | test system | setting | measurement | value
O=C(CCc1ccc(O)cc1)c1c(O)cc(O)cc1O | CTSL | enzyme activity, inhibitor | – | 100 µM | remaining activity | 89.1%
CC[C@H](C)[C@H](NC(=O)[C@H](CCC(N)=O)NC(=O)[C@H](CC(C)C)NC(=O)[C@H](CCSC)NC(=O)[C@H](CCCCN)NC(=O)[C@H](CO)NC(=O)[C@H](CO)NC(=O)[C@H](CCSC)NC(=O)[C@H](CC(C)C)NC(=O)[C@H](CC(N)=O)NC(=O)[C@@H](NC(=O)[C@@H](NC(=O)[C@H](CO)NC(=O)[C@H](CC(C)C)NC(=O)[C@H](CS)NC(=O)[C@H](CCCNC(=N)N)NC(=O)[C@H](CC(=O)O)NC(=O)[C@H](Cc1c[nH]c2ccccc12)NC(=O)[C@H](Cc1ccccc1)NC(=O)[C@H](C)NC(=O)[C@H](CCC(=O)O)NC(=O)[C@@H](N)CCCCN)C(C)C)[C@@H](C)CC)C(=O)N[C@@H](CC(N)=O)C(=O)N[C@@H](C)C(=O)O | Cyclin-dependent kinase 5, with p35 (CDK5, Homo sapiens, UniProt Q00535) | enzyme activity, inhibitor, radiometric | – | 250 µM, 20 min | remaining activity | 47%
O=C(NO)c1cccc(OS(=O)(=O)Oc2ccc(C(F)(F)F)cc2)c1 | HDAC6 | enzyme activity, inhibitor, fluorescence | – | – | Ki | 374 nM
COc1cc(-c2cncc3c2CN(C)Cc2cc(N4CCNCC4)ccc2-3)cc(OC)c1OC | CSNK1G2 (Homo sapiens, UniProt P78368) | enzyme activity, inhibitor | – | 1 µM | remaining activity | 108%
Cc1cc([C@@H](C)Nc2ccccc2C(=O)O)c2nc(N3CCC(F)(F)CC3)c(C#N)c(=O)n2c1 | KIT (Homo sapiens, UniProt P10721, T670I/V559D) | binding, competition with immobilised ligand | – | 10 µM | remaining binding | 100%
Cc1cc(NS(=O)(=O)c2ccc(N=NN(O)c3ccccc3)cc2)no1 | – | ABTS scavenging | – | 20 µg/mL | inhibition | 14.8%
COc1cccc(OC)c1-c1cc(C(=O)NC2(C(=O)O)C3CC4CC(C3)CC2C4)nn1-c1ccc(C(=O)N(C)CCCN(C)CCCN(C)C(=O)CN2CCN(CC(=O)[O-])CCN(CC(=O)[O-])CCN(CC(=O)[O-])CC2)cc1C(C)C.[177Lu+3] (stereo not shown) | HT-29 tumour model | – | host not given, bone | intravenous, 4 h, tumour-bearing | tracer uptake | 0.8 %ID/g
O=C1c2cccc(O)c2C(=O)c2c(O)cc(CO)cc21 | CTSL | enzyme activity, inhibitor | – | 100 µM | remaining activity | 69.4%
CNc1ncc2c(/C=C/C(=O)N3CCC(OC)CC3)nn(Cc3cccc(C(F)(F)F)c3)c2n1 | GRK5 (Homo sapiens, UniProt P34947) | enzyme activity, inhibitor, radiometric | – | 1 µM | remaining activity | 124%
COc1ccc(C[C@H](N)C(=O)N[C@H]2[C@@H](O)[C@H](n3cnc4c(N(C)C)ncnc43)O[C@@H]2CO)cc1 | CTSL | enzyme activity, inhibitor | – | 100 µM | remaining activity | 131%
FC(F)(F)Oc1cccc(-c2cnc3ccc(-c4ccncc4)nn23)c1 | RPS6KA5 N-terminal kinase domain | binding, competition with immobilised ligand | – | 5 µM | remaining binding | 97%
O=C1CC[C@H](N2Cc3cc(N4CCN(CC5CCN(c6ccc([C@@H]7c8ccc(O)cc8CC[C@@H]7c7ccccc7)cc6)CC5)CC4)ccc3C2=O)C(=O)N1 | – | – | male Sprague-Dawley rat, plasma | oral, 20 mg/kg, fasted | AUC(0-inf) | 6140 ng·h/mL
C1CNCCNCCNCCN1 | CTSL | enzyme activity, inhibitor | – | 100 µM | remaining activity | 100%
O=C(c1ccc(F)cc1)C1CCN(CCn2c(=O)[nH]c3ccccc3c2=O)CC1 | – | metabolic stability, mass spectrometry | human, liver microsomes | 30 min | compound remaining | 47%
NC/C(=C\F)COc1cccc(Cn2c(=S)[nH]c(=O)c3[nH]cnc32)c1 | TACR1 (Homo sapiens, UniProt P25103) | ligand displacement, radioligand | – | 10 µM | inhibition | < 50%
Cc1[nH]c(C)c(S(=O)(=O)Nc2cc(Cl)c(Cl)c(Cl)c2)c1C(=O)N1CCC(F)(F)C1 | DRD3 | β-arrestin recruitment, agonist | – | 90 min | Emax | 95%
Oc1cc2c(cc1O)C1c3ccc(O)c(O)c3OCC1(O)C2 (stereo not shown) | CTSL | enzyme activity, inhibitor | – | 100 µM | remaining activity | 90.6%
C=CC(=O)N1CCC(COCC(=O)N2CCN(c3nc(-c4cnc(N)nc4C(F)F)nc(N4CCOC[C@@H]4C)n3)CC2)CC1 | RPS6KA5 N-terminal kinase domain | binding, competition with immobilised ligand | – | 1 µM | remaining binding | 100%
Cc1[nH]c(C)c(S(=O)(=O)Nc2cc(Cl)c(Cl)cc2Cl)c1C(=O)N1CCC(F)(F)C1 | DRD3 | β-arrestin recruitment, agonist | – | 90 min | Emax | 91%
CC(=NNC(=S)Nc1ccccc1)c1ccc(Nc2nnc(-c3ccc(Cl)cc3)c3ccccc23)cc1 | MCF7 | cell growth or viability, MTT | – | 10 µM | cell death | 96.5%
O=C(/C=C/c1ccccc1)c1ccc(O)cc1 | CTSL | enzyme activity, inhibitor | – | 100 µM | remaining activity | 50.2%
C1=C/COCc2cc(ccc2OCCN2CCCC2)Nc2nccc(n2)-c2cccc(c2)COC/1 | FER (Homo sapiens, UniProt P16591) | binding | – | 0.1 µM | remaining binding | 100%
O=C(NO)c1cccc(OS(=O)(=O)Oc2ccc3ccccc3c2)c1 | HDAC6 | enzyme activity, inhibitor, fluorescence | – | – | Ki | 40 nM
CCCCC(=O)Nc1ccc(-c2ccc3ncn(CCC)c(=O)c3c2)cn1 | Tyrosine-protein kinase ABL1, phosphorylated (ABL1, Homo sapiens, UniProt P00519, E255K) | binding, competition with immobilised ligand | – | 0.5 µM | remaining binding | 93%
N[C@H]1CCN(c2nccc(-c3cnn4ncccc34)n2)C1 | CRK2 (Plasmodium falciparum, UniProt P61075) | cell-free assay | – | 1 µM | remaining signal | 38%
Cc1ccc(N(O)N=Nc2ccc(S(=O)(=O)Nc3onc(C)c3C)cc2)cc1 | – | ABTS scavenging | – | 20 µg/mL | inhibition | 26.2%
Nc1ncnc2occ(-c3ccc(NC(=O)Nc4cc(C(F)(F)F)ccc4F)cc3)c12 | EPHB6 (Homo sapiens, UniProt O15197) | cell-free assay | – | 20 µM | remaining signal | 0%
COc1cc(OC)cc(-c2cc(C(C)=O)n3ccccc23)c1 | BRD9 (Homo sapiens, UniProt Q9H8M2) | thermal stability, DSF | – | 200 µM | ΔTm | 6.5 to 7.3 °C

A few entries again:
Structure (SMILES) | target or system | test | test system | setting | measurement | value
O=C(CCc1ccc(O)cc1)c1c(O)cc(O)cc1O | CTSL | enzyme activity, inhibitor | – | 100 µM | remaining activity | 89.1%
CC[C@H](C)[C@H](NC(=O)[C@H](CCC(N)=O)NC(=O)[C@H](CC(C)C)NC(=O)[C@H](CCSC)NC(=O)[C@H](CCCCN)NC(=O)[C@H](CO)NC(=O)[C@H](CO)NC(=O)[C@H](CCSC)NC(=O)[C@H](CC(C)C)NC(=O)[C@H](CC(N)=O)NC(=O)[C@@H](NC(=O)[C@@H](NC(=O)[C@H](CO)NC(=O)[C@H](CC(C)C)NC(=O)[C@H](CS)NC(=O)[C@H](CCCNC(=N)N)NC(=O)[C@H](CC(=O)O)NC(=O)[C@H](Cc1c[nH]c2ccccc12)NC(=O)[C@H](Cc1ccccc1)NC(=O)[C@H](C)NC(=O)[C@H](CCC(=O)O)NC(=O)[C@@H](N)CCCCN)C(C)C)[C@@H](C)CC)C(=O)N[C@@H](CC(N)=O)C(=O)N[C@@H](C)C(=O)O | Cyclin-dependent kinase 5, with p35 (CDK5, Homo sapiens, UniProt Q00535) | enzyme activity, inhibitor, radiometric | – | 250 µM, 20 min | remaining activity | 47%
O=C(NO)c1cccc(OS(=O)(=O)Oc2ccc(C(F)(F)F)cc2)c1 | HDAC6 | enzyme activity, inhibitor, fluorescence | – | – | Ki | 374 nM
